Measurements pooled from the literature.
Each line is one published result; not all experiments were run side by side. Positions count from the first letter of the parent shown. ± gives the spread as reported.
SUMO/GIN4: SUMO/GIN4 (Saccharomyces cerevisiae)
RIGI: RIGI 2-925 (Homo sapiens, UniProt O95786)
Sequence of UniProt O95786 (whole entry, looked up): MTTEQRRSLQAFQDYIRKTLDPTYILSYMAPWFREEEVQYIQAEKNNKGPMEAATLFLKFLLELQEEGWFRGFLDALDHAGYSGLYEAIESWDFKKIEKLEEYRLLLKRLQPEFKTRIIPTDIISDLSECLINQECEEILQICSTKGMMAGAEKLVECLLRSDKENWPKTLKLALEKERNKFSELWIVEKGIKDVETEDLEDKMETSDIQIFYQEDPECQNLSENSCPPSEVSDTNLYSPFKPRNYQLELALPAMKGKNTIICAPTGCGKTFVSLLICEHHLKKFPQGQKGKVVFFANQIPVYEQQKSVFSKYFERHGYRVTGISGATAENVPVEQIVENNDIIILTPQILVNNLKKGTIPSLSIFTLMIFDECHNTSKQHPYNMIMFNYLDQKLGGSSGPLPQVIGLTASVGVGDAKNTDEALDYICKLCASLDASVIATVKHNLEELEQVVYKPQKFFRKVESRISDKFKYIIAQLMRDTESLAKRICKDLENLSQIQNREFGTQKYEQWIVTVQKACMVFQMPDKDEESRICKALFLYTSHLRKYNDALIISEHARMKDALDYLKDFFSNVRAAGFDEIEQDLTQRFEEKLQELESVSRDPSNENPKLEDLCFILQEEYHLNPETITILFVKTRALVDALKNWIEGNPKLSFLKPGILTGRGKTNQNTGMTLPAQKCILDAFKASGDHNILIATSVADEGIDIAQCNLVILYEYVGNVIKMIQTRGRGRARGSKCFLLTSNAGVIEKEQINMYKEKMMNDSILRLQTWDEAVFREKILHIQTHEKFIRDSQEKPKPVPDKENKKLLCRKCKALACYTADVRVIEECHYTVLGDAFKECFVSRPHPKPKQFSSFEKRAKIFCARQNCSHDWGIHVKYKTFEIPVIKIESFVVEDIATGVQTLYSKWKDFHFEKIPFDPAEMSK
P1: ELM1 (Saccharomyces cerevisiae); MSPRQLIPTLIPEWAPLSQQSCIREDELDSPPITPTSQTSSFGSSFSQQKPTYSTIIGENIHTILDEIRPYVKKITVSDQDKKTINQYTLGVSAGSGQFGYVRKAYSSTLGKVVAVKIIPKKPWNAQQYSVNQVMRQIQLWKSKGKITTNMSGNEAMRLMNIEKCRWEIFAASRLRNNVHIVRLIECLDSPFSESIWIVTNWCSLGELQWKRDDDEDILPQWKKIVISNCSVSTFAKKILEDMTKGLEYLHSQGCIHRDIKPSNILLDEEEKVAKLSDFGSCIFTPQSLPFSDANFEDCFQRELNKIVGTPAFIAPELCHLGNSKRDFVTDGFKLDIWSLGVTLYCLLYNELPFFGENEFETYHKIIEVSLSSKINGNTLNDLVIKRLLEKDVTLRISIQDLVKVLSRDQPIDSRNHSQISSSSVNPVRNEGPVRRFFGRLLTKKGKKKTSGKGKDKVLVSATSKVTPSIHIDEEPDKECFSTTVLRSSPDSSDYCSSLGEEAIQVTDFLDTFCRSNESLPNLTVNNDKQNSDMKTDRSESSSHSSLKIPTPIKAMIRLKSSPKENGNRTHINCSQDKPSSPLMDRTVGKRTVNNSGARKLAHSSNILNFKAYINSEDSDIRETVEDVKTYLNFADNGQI
P2: RCC1 residues 1-6 peptide (Homo sapiens); SPKRIA; partner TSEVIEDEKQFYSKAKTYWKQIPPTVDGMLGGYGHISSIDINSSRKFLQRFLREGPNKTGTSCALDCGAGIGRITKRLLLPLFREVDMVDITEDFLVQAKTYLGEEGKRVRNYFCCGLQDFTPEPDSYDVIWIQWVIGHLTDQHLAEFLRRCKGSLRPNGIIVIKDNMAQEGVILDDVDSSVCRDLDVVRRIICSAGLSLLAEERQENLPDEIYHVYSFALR
P3: METTL9 full-length, 1-318 (Homo sapiens); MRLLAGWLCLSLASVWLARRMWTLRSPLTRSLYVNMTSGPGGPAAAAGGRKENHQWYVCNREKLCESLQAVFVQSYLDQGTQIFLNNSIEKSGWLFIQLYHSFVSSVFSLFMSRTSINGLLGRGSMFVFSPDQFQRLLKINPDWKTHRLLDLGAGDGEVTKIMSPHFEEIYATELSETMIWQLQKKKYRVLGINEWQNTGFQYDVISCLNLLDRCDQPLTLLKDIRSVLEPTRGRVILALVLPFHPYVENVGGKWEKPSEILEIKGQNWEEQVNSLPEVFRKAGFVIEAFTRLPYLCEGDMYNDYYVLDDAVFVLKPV
P4: SFH4 (Saccharomyces cerevisiae); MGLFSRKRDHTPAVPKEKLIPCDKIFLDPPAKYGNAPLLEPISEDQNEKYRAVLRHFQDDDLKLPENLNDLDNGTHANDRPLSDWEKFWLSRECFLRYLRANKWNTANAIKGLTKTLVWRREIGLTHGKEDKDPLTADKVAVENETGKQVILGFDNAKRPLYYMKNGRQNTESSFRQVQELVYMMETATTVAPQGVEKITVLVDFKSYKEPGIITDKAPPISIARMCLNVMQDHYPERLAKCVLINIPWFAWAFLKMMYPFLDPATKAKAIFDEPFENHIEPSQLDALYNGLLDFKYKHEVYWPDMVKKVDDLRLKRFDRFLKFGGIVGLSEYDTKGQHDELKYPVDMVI
Sequence of UniProt Q980N4 (whole entry, looked up): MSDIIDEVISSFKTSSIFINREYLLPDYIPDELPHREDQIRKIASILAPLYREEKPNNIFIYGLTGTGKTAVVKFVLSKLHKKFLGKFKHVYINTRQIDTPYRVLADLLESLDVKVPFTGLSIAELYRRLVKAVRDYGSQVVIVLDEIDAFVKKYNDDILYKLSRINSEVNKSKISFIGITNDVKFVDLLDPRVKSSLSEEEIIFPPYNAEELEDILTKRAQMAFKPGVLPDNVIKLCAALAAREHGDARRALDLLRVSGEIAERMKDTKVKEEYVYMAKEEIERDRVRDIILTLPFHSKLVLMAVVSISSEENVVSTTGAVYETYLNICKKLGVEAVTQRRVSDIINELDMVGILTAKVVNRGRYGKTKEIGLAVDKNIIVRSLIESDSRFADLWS

With `P1 S519D` the relative binding was 1.1 (SUMO/GIN4; GST pull-down; baseline: unchanged protein, higher = more binding).
For `P2 S1Y`, the Kd was 100 nM (NTMT1 residues 2-223 (Homo sapiens); ITC; second site, bimodal curve).
For `P3 D213N`, the Kd was 28700 nM (SLC39A7 residues 66-74; ITC; added: SAH 2 mM).
Under binding, `TTCCTTCCTTTAATGTTTCAGATGAAATTAAGAGAGTGTCTCTTTTAAAAACGATAATAC (dsDNA)` is recorded as “binds” (cdc6-1 full length assumed (Saccharolobus solfataricus, UniProt Q980N4); EMSA; double-stranded DNA, one strand shown).
`MYO10 L1063P (Homo sapiens)` has a relative binding of 0.6 (BTRC; co-IP; HEK293T; added: MG132; baseline: unchanged protein, higher = more binding).
With `RNA 1 GCAUGCGACCUCUGUUUGA / RNA 2 UCAAACAGAGGUCGCAUGC (dsRNA; 5'-triphosphate, duplex, 19 bp)` the Kd was 1.2 ± 0.3 nM (RIGI; MST; double-stranded RNA; added: AMP-CP 0.4 mM; MgCl2.5 mM).
The relative binding of `P1 S519A` is reported as 1 (SUMO/GIN4; GST pull-down; baseline: unchanged protein, higher = more binding).
The relative binding of `MYO10 S1062R (Homo sapiens)` is reported as 0.6 (BTRC; co-IP; HEK293T; added: MG132; baseline: unchanged protein, higher = more binding).
`GGACGUACGUUUCGACGUACGUCC (structured RNA; 5'-OH, hairpin, 10 bp)` gave a Kd of 3.9 ± 1.9 nM (RIGI; MST; folded RNA; added: ADP-AlFx).
`P3 V241G` has a Kd of 60900 nM (SLC39A7 residues 66-74; ITC; added: SAH 2 mM).
For `P4 F175L`, the relative binding was 0.045 (PSD2 (Saccharomyces cerevisiae); co-IP; read off a plot; baseline: unchanged protein, higher = more binding).

A few entries again:
With `P1 S519D` the relative binding was 1.1 (SUMO/GIN4; GST pull-down; baseline: unchanged protein, higher = more binding).
For `P2 S1Y`, the Kd was 100 nM (NTMT1 residues 2-223 (Homo sapiens); ITC; second site, bimodal curve).
